Experimental data gathered from unrelated publications.
Each numbered part is a random draw from the data of one study; scales do not carry over between parts.

Block 1 — technique: protein-binding microarray; form: double-stranded DNA, one strand shown; sample: in vitro; tested at: 250 nM; notes: 60-bp whole probe; added: salmon DNA 0.4 mg/ml; baseline: random background probes; direction: higher = stronger binding; all sequences stand within: GCCTAGCAC … GTCTTGATTCGCTTGACGCTGCTG
Target: Interferon regulatory factor 5, full length, phosphomimetic (IRF5, Homo sapiens, UniProt Q13568-2, residues 1-514, K96S/S451D/S453D/S456D/S462D)
`ACCCGAGACACCGCCCCTTTGTGCTAG` gave a log fluorescence of -0.328 z-score.
`TCAGGTATCGGGTATCGGTTAGTGCTA` has a log fluorescence of 6.58 z-score.
`TCATTTCTACTGTCTGTTACTGTGCTA` has a log fluorescence of 1.93 z-score.
The log fluorescence of `TCAGTTTCTGATATGGTACTGTGCTAG` is reported as 3.32 z-score.
The log fluorescence of `GTCGATCTCAGTTTCGAGACGTGCTAG` is reported as 5.63 z-score.
With `TCAAAAGTCTTTTATGGTACTGTGCTA` the log fluorescence was 0.263 z-score.
The log fluorescence of `TCACATATCGGGGTGCGCACTGTGCTA` is reported as 0.692 z-score.
With `ATAGGTATCGACACTGGGTTAGTGCTA` the log fluorescence was 1.92 z-score.
`TTAGATTTCGGGACTGGATTAGTGCTA` has a log fluorescence of 2.74 z-score.
`TCAGTTTTCACTTTTCCACTGTGCTAG` has a log fluorescence of 3.62 z-score.
The log fluorescence of `GACGGTATCGGTCTCGGGAAGTGCTAG` is reported as 5.83 z-score.
`TTAGGACTGGGTCTCGATTAGTGCTAG` has a log fluorescence of -0.00613 z-score.
`GACGGGTTCGGGTTTCGGGACGTGCTA` gave a log fluorescence of 1.44 z-score.
With `TTAGGGATCGACACTGGGTTAGTGCTA` the log fluorescence was -0.0941 z-score.
For `GACGGTATCGACTTTCGCGACGTGCTA`, the log fluorescence was 3.28 z-score.
`GAATGATTACATATATGTTGGTGCTAG` gave a log fluorescence of 0.363 z-score.

Block 2 — technique: protein binding microarray; form: double-stranded DNA, one strand shown; sample: in vitro; tested at: not given; baseline: not given; direction: higher = stronger binding
Target: Histone acetyltransferase KAT6A, both winged helices, GST fusion (KAT6A, Homo sapiens, UniProt Q92794, residues 1-181)
Notes: 8-mer, flanks averaged, mean of 2 arrays, mostly near background
Residues (chain): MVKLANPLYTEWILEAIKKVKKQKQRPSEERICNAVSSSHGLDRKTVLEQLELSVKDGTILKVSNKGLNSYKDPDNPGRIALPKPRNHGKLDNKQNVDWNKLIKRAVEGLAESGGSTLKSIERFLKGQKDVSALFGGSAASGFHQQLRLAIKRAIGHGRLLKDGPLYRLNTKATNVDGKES
`GCGACCGC` has an E-score of 0.316.
`ATCTGGCC` has an E-score of -0.00988.
For `CATCTTAA`, the E-score was -0.156.
`TCGTTGCA` has an E-score of -0.143.
`CGAACTAG` gave an E-score of -0.0671.
With `AGGACCCT` the E-score was -0.151.
The E-score of `GGCGCGCC` is reported as 0.384.
With `CCTACGGA` the E-score was 0.152.
With `TACAGACA` the E-score was -0.142.
`CACTGTCA` gave an E-score of -0.19.
The E-score of `CTGACGGC` is reported as 0.235.
With `CAATTCTG` the E-score was -0.0986.
`CAAATTGC` has an E-score of -0.0291.
`AATCATTG` gave an E-score of -0.233.
`GCTGCTAC` gave an E-score of -0.0986.
For `GCTATGCC`, the E-score was -0.0126.
For `GCAGATCA`, the E-score was -0.0574.
With `GCGACCAA` the E-score was 0.0689.
With `GGGGTGGA` the E-score was -0.181.
With `ACCCCGTC` the E-score was 0.199.
`CAAGGGTG` gave an E-score of 0.0542.

Block 3 — technique: RNA Bind-n-Seq; form: RNA; sample: in vitro; tested at: 365 nM; baseline: no-protein control; direction: higher = stronger binding
Target: RNA binding protein fox-1 homolog 2, RRM domain, GST-SBP tag (RBFOX2, Homo sapiens, UniProt O43251-10, residues 100-194)
Notes: natural RNA segment, single round, ends assumed
All sequences stand within: GGGAGUUCUACAGUCCGACGAUC … UGGAAUUCUCGGGUGCCAA
Residues (chain): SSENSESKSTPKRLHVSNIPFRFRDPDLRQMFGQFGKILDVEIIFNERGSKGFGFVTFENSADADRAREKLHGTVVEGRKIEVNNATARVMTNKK
Under “RBNS enrichment (R)”, `AGAGCAUGAUCAUAAAGGCUAUUUUGACAGUUCAUUUUAACAUUUAGAGUUGAUAAGGGUUUAUAUCUCAUCUGUCCAUAUUGUUUGCAAAGGAACAAGGUUUUAUGUAG` is recorded as 0.346.
`CUCCCAAGUAGCUGGGAUUACAGGCACCCGCCACCACGCCCAGCUAAUUUUUGUAUUUUUGUAGAGAUGGGGUUUCACGAUGUUGGCCAGGCUGGUCUCAAACUUCUGAC` — result for “RBNS enrichment (R)”: 0.617.
For `AGACUGAGGCUCUCCCAUGCCUACCAGGGGGUGUUUUCCUUCCUAAACAGAACACUGGAUUCUUCCUGUUAACUUCACCGAGAGUAGCUACAAAGGUGGACUUAGAGCCA`, “RBNS enrichment (R)” read 0.325.
`AUGAAUUCUAGAUACAGCUACUUAUGGAUUCAUCAAUAUCAUGAGCACUUUUGCUGGUUCCAGUCAAUCAAUGGCAUUUAAUAAAUUUUUUAAGAAGUAAAAAUACAUGU`: “RBNS enrichment (R)” 0.658.
`GGCAGCUUUGACCACUAUGCAACGUACUACCGCUCCCCUCUCCUCCGCCACCCCCGCCGUGGGGCUCCGGAGGGGACCCAGCUCCUCUGAGCCAUACCGACCAUCGUCCA` — result for “RBNS enrichment (R)”: 0.304.
Under “RBNS enrichment (R)”, `GGUGCCCACCUGGGCUAUGUGGGGAGCACCACUGUCUCGGGAUGCGCGAAUUUUUUUUUUUUUUUUAAUUAACAGGGCAUUAGAAGAUGAUUUUGCCAAAAUUGUCAUGA` is recorded as 1.43.
Under “RBNS enrichment (R)”, `UGGAGCCCCAGCCCCACCUUAGCCCUGCUGAGGCUCCAUGGCUUCUCCACUUCUUCUCAUGUGACCUCACAGUGUUGCUACUGUUCCUAAUAAAGUUUUAAGUUAUUAGA` is recorded as 0.628.
For `AAUGGGAUGUGGCCAUGGCAUUGCUAGAAUAUGGUGUGCUUUUAGAACAAAUGUGGCCUUCUCAUGCCAUUUCCAGUAAUGACGCAGAGGAGGACGUGUUGCCUCAGAAC`, “RBNS enrichment (R)” read 0.407.
`AUGCUUGCCUCGCAUAGAGUGCAGUUGGUAUUCAUUUACCUAUGUGCGCCAGUUUGGGUUGCCGUUACCAGUUCAAUAUAGCCCUGCAUUUAAAAUUCCUUUUAAGAUUC`: “RBNS enrichment (R)” 0.748.
`GGUUUUUUUUUUUUUUAAGUUUUUUCUUUCUUCCUCUCCUGAAUACACUCCCCAAAACACCCCUUUCCAGUUACAAUUAGCAUCGUGAUCCAAGCAGAUGCCACAUGGAA` — result for “RBNS enrichment (R)”: 0.629.
Under “RBNS enrichment (R)”, `CGGCAGCCACUCUGCGUCUCUCACCUGCCAGGCCUGCGUGGCCUUAGGGUUGUUCCUGUUCUUUUAGGUUGGGCGGUGGGUCUGUGUCCUGGUGUUGAGUUUCUGCAAAU` is recorded as 0.413.
Under “RBNS enrichment (R)”, `UGGUGACUCCAGCCUCUUUCUCCUGGAGGUCACAAGAUGAUGAUUGCGUAGAUGUUGCCUGGUGCAAAGUGCCCCAAACAGCAAUAGAAAGGCAUAUGUAUAACCAAACU` is recorded as 0.326.

Block 4 — technique: RNA Bind-n-Seq; form: RNA; sample: in vitro; tested at: not given; baseline: input RNA pool; direction: higher = stronger binding
Target: RING finger protein unkempt homolog, zinc fingers 1-6, GST-SBP tag (UNK, Homo sapiens, UniProt Q9C0B0, residues 30-357)
Chain of UniProt Q9C0B0 (30-357, looked up): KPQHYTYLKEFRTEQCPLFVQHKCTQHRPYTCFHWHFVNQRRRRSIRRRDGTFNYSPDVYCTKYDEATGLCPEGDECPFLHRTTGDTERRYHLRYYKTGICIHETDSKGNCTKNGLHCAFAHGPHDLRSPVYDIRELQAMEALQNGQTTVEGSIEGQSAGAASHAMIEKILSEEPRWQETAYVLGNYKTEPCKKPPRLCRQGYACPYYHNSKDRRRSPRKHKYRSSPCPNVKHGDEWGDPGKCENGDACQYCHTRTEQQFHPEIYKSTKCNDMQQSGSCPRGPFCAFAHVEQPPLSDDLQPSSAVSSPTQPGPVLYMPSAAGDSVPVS
Notes: RNA with constant flanks, human and mouse sites, ends assumed
All sequences stand within: GGGAGUUCUACAGUCCGACGAUC … CAACAGAGGAUUGAGCAUCA
`ACAGCUGAUUCACUCAUUGGGAGAGCUGCACAUAUAGCUGUUCUUGAUUCGGAAAUAUUUUUAGAGAAAUUCUUUCUGGUUGCUGCCCUCAAAUAUUUCCAAUAGUAUAAAAGCAUUGUU` gave a bound/input enrichment of 6.49 ratio.
For `ACGAGCGUAGCUUCCAGAAUUGGAGCCCAGGCCCUCCCGCGCAGCUCGGCUGCAGGUUUGGCUUGUCAGAGGCUGAGAAGGGACGGAGGAGGCUCGGGUCCCCCCCACCCCAUCACAGCU`, the bound/input enrichment was 0.155 ratio.
`GGCUCUACGGCGAUUAAGAAGAAACAGCAAGAUGUGCUUUGUUUCUUAGAAGCCAACAAAAUAGGAUUUGAAGAAAAAGAUAUUGCAGCUAAUGAAGAGAAUCGGAAGUGGAUGAGAGAA` gave a bound/input enrichment of 2.1 ratio.
`GAGCCAGUUGUGGCAGAGACAGUGGAAGAAGUGAAAAAAGAACCUGUUUUGGUGUGUCCACCCUUACGAAGCCGAGCAUACACACCGCCCAGUGAUCUCCAGAGUCGCUUGGAAUCUCAU` gave a bound/input enrichment of 0.179 ratio.
For `AUAUUGAAACAGUCUGCAGAUUUUUUAUCAAUAAACAAAUUGCUAAAGUACUCAUGGUUUUUCUUUGAAAUAAUUGCAAAGUCAAUGGCCACAUACUUGUUGGAAGAGAAUAAGAUUAAG`, the bound/input enrichment was 0.251 ratio.
For `GAUGUCAUCGAAGACAAAUUGAAGGGAGAGAUGAUGGAUCUCCAACAUGGCAGCCUUUUCCUUAGAACACCAAAGAUUGUCUCUGGCAAAGACUAUAAUGUAACUGCAAACUCCAAGCUG`, the bound/input enrichment was 0.152 ratio.
`CAUUCUCUUGCACUGUACAGAACAGAUGACUACUUAGAUCAGCCGUGUUGUGAAACCAUUAAUAGAAUUAAACUUUACAGCGAGUCUUUGGCAAGAUACGGUAAAAGCCCGUACCUGUAU` gave a bound/input enrichment of 2.75 ratio.
`ACAAUACUUGAACAUUUUAAUCUUUUGGAAUAUUGUCUUUCUUUGUUAUAACUAUUCAUUUUUAGCUUUUGUCUCCAGUGCAUGAUCUCAUAUUUUUGCUUUUAUUUUUAGUAUAAGAAC` has a bound/input enrichment of 5.64 ratio.
For `AUGCUCUUCAUUGUGUAAAAUUGCUGUUCUUUUGACAAUUUAAGUGAUUGUUUUGUUUACUGUAAGUUUGAAAAUAAAAAUGAAGAAAAAAAUUCCAAUGACUGUGCUGUGGUUGGAGAC`, the bound/input enrichment was 0.428 ratio.
With `CCCAAGGAGACUAAGGAGGACGGAAGAACAGGUGAGGCACAAGGACCCGUGUAAACUCAUCUUAGACCAUCCCAUUCUUGAGUGGCCAGCUCAGAGCUCAAGGCUGGAAGAAAAAGAGCC` the bound/input enrichment was 0.277 ratio.
With `AAACAAAAAAGAGAGCAAAAGUUGAUUUCUACAAAAACAGAUAAAAAGAAGGCAGAAAAGAAGAAGAAUAAAAAGAAAGAAAUCCAGAAUGGGACCCUUCGUGAAUCUGAUUCUGAGCAC` the bound/input enrichment was 0.371 ratio.

Excerpt of the above (block 3):
Under “RBNS enrichment (R)”, `AGAGCAUGAUCAUAAAGGCUAUUUUGACAGUUCAUUUUAACAUUUAGAGUUGAUAAGGGUUUAUAUCUCAUCUGUCCAUAUUGUUUGCAAAGGAACAAGGUUUUAUGUAG` is recorded as 0.346.
`CUCCCAAGUAGCUGGGAUUACAGGCACCCGCCACCACGCCCAGCUAAUUUUUGUAUUUUUGUAGAGAUGGGGUUUCACGAUGUUGGCCAGGCUGGUCUCAAACUUCUGAC` — result for “RBNS enrichment (R)”: 0.617.
For `AGACUGAGGCUCUCCCAUGCCUACCAGGGGGUGUUUUCCUUCCUAAACAGAACACUGGAUUCUUCCUGUUAACUUCACCGAGAGUAGCUACAAAGGUGGACUUAGAGCCA`, “RBNS enrichment (R)” read 0.325.
`AUGAAUUCUAGAUACAGCUACUUAUGGAUUCAUCAAUAUCAUGAGCACUUUUGCUGGUUCCAGUCAAUCAAUGGCAUUUAAUAAAUUUUUUAAGAAGUAAAAAUACAUGU`: “RBNS enrichment (R)” 0.658.
`GGCAGCUUUGACCACUAUGCAACGUACUACCGCUCCCCUCUCCUCCGCCACCCCCGCCGUGGGGCUCCGGAGGGGACCCAGCUCCUCUGAGCCAUACCGACCAUCGUCCA` — result for “RBNS enrichment (R)”: 0.304.
Under “RBNS enrichment (R)”, `GGUGCCCACCUGGGCUAUGUGGGGAGCACCACUGUCUCGGGAUGCGCGAAUUUUUUUUUUUUUUUUAAUUAACAGGGCAUUAGAAGAUGAUUUUGCCAAAAUUGUCAUGA` is recorded as 1.43.
Under “RBNS enrichment (R)”, `UGGAGCCCCAGCCCCACCUUAGCCCUGCUGAGGCUCCAUGGCUUCUCCACUUCUUCUCAUGUGACCUCACAGUGUUGCUACUGUUCCUAAUAAAGUUUUAAGUUAUUAGA` is recorded as 0.628.
For `AAUGGGAUGUGGCCAUGGCAUUGCUAGAAUAUGGUGUGCUUUUAGAACAAAUGUGGCCUUCUCAUGCCAUUUCCAGUAAUGACGCAGAGGAGGACGUGUUGCCUCAGAAC`, “RBNS enrichment (R)” read 0.407.
